Published values pooled from the literature.
Parts stem from different laboratories: compare values within a part only.

Series 1 — method: Spec-seq; form: double-stranded DNA, one strand shown; sample: in vitro; concentration: not given; setting: whole probe, mean of replicates; reference: not given; direction: lower = stronger binding; shared flanks, not repeated: GAGTCGTCTCGTCAGCAC … CCGTAGAGCACTCAGGTC
Target: POU domain, class 5, transcription factor 1, POU domain (Pou5f1, Mus musculus, UniProt P20263, residues 131-289)
Chain of UniProt P20263 (131-289, looked up): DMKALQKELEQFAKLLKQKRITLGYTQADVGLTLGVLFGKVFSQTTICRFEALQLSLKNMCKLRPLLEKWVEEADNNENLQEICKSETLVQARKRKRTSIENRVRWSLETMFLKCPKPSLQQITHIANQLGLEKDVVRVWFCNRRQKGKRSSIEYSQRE
Sequence	relative binding energy [ln ratio]
ATGCACGT	0.171
GCAATAAT	0.163
AGCATAAT	-0.533
ATAATTAT	-1.85
CTAATAAT	0.151
ATGCGACG	0.315
ATGCGGGC	0.553
CGCTTAAT	0.635
ATACTTAT	-0.248
ATTAGAAT	-0.867
ATATGCAT	-1.7
GATATAAT	0.181
ATGCACTC	0.19
ATGCGCGG	0.391
ATGCTACC	0.449
TGTCTAAT	0.656
ATGGCCAT	0.783
ATGCAGTT	0.174
ATGCGCAA	0.187
ATGCGCCG	0.611
GTCTTAAT	0.666

Series 2 — method: RNA Bind-n-Seq; form: RNA; sample: in vitro; concentration: 365 nM; reference: no-protein control; direction: higher = stronger binding
Target: RNA binding protein fox-1 homolog 2, RRM domain, GST-SBP tag (RBFOX2, Homo sapiens, UniProt O43251-10, residues 100-194)
Setting: natural RNA segment, single round, ends assumed
Target sequence (chain): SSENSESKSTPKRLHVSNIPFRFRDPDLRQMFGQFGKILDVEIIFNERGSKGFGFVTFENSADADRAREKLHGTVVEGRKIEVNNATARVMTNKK
Sequence	RBNS enrichment (R)
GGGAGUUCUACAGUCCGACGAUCGCACAGAACAGUCUCUCCGUGGGAGGAGACAUUAUGGGGCGUCCACCACCACCCCUCCCUGGCCAUCCUCCUGGAAUGUGGUCUGCCCUCCACCAGAGCUCCUGCCUGCCUGGAAUUCUCGGGUGCCAA	0.909
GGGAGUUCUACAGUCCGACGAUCUACUAUAUUAAGCUUGAAGAAGCAGAAGAUCCCUGUUAAUGUGUAUGGCCCAGGCCAAGAGCUGUCAAAUGAAAAACUUUGUGCUGAAGCAGGUUUUUAGUAUGUAUAUCUGGAAUUCUCGGGUGCCAA	0.556
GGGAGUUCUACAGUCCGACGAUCUCCUAGUGUCAGCUCCCAGGCCGCCUUAGAGCUGCUCAUUCCUGAAUGACUGGCUCCCCUGCCCUUUUAGACAAAGGCUGCUGCUUUCAGCCUUCUCCAAGGGAGAGCCUUGGAAUUCUCGGGUGCCAA	0.375
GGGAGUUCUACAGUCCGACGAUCAAGGCCUUCACCUACGUGAAGACCUCCUGGUAGGAUCUGUCCAUGGGAUGGAGAACCACUCUGUCCAGAUCUGGGGUUGGGUCAUGACACCAGCUACCAAUUUUAGAAUAUGGAAUUCUCGGGUGCCAA	0.205
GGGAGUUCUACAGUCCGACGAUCGUGUGUGGCACCUGUGAUGGCAGGGCUGUGAGCUGGGCUUCUGUCCUCCUCUGUGUCCCGGCAUGGAAGCCAGUAUAAGCAUUUCCAAAUGAGGGAAAAGUCCUUGGCUCUGGAAUUCUCGGGUGCCAA	0.941
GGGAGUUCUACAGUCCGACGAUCAAACUUAUGCUCUAAACAUUUCUAGUUCCCCCAAACAACCUAGAGGCCUUGGGACUUCACAUCCCCCAGCACACAAGCCUCACCACCCCCUGCCAUCCCCCCUCCAUUGCUGGAAUUCUCGGGUGCCAA	0.387
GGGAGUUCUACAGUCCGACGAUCACUAAGUUAAUUUAGUAUAAAAAUAGAAUUGAUAGUGAGGGUAUAAAGUGUAACCAUCAGUUAAACCUCUCCUGUCAUUCCUGGCUUCCUUGCUUCAGAAUUGAAAUGGAUGGAAUUCUCGGGUGCCAA	0.258
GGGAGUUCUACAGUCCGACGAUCAUGGUUUUAAGAAGCAGUUGUACCAAGUGAAAUUAUUUUGGAGAUUAUAAUAAAUAUAUACAUUCAAUCUGAGUUGCAUAUCCUCAGUUUGGGAAAACUUGUGGGGGCUUUGGAAUUCUCGGGUGCCAA	1.62
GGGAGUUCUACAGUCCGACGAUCGCUUGAUGUGAAGUCCUCUAGAAUGUUUACAUUUACUAAGGUGUGCUGGGUCCUGUCUCUUUUGACUAAUAUUUUCGUAAACAUUAGGCUGGAGAAAGGAAGGAAGCAGUUGGAAUUCUCGGGUGCCAA	0.432
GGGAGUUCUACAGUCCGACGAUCUGUGACGAUCACAGACCUUCGAUAAAUCUCAAAUCAUGAACCAGGGAGAUGGAUCACUGGGUAACAGCACUUGUCACCAAGCCCAACAGCCCAGGCUCAGUUCUUGGGACUGGAAUUCUCGGGUGCCAA	0.251
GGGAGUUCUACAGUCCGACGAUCACUUUCUUCACCCUGGGUCUGUUUCAAGCCGGCCAGAGAGCCUUUCCAAAGAGGAAUGAGGCCCAGGCCUUGGCUAUACGUACUUCCUGCCCCUGGCCAUCCUUGUUGGAUGGAAUUCUCGGGUGCCAA	0.199
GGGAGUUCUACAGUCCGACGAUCGUCCGGAGGAGCAGCUUCGUGCUGCGCGAACUUUAGCAGGAGGACCGAUGAUUAGCAUUUAUGAUGCAGAGACAGAACAACUUCGUAUAGGACCGUACUCCUGGACACCAUGGAAUUCUCGGGUGCCAA	0.366

Series 3 — method: protein binding microarray; form: double-stranded DNA, one strand shown; sample: in vitro; concentration: not given; reference: not given; direction: higher = stronger binding
Target: Histone acetyltransferase KAT6A, both winged helices, GST fusion (KAT6A, Homo sapiens, UniProt Q92794, residues 1-181)
Setting: 8-mer, flanks averaged, mean of 2 arrays, mostly near background
Construct (chain): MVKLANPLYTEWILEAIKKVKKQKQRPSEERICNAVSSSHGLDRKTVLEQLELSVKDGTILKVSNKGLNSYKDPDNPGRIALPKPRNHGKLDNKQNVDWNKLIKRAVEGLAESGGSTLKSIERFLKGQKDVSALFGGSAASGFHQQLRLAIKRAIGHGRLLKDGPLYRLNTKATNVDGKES
Sequence	E-score
CAGTGGAG	-0.0543
AAAGCGGA	0.216
GCCCTGAA	-0.147
CACGACTA	-0.149
TTAGACAA	0.0373
ACGCACAG	0.16
CTTCTAAC	-0.159
GCGAATGA	0.134
TCGTTCCA	-0.137
TGTAACAA	-0.144
AAGTAGCA	-0.244
GCTTAGGA	-0.153
AAGCGACA	0.0597
AGTCCACT	-0.37
AATCCAGC	-0.0514
AAATTGAC	-0.0461
CGGCAACA	0.161
GAGAGCAA	-0.172
TCTACGCA	0.0373
CCTCATTA	-0.13
CTAAGACA	-0.0819
CTGCTCTC	-0.167
GCACTGGA	-0.0827
CCGTCGTC	0.154
GCCAGTGA	-0.108

Series 4 — method: competition protein-binding microarray; form: double-stranded DNA, one strand shown; sample: in vitro; concentration: 2 µM; added: Pho4 competitor, 0.05 µM; direction: higher = stronger binding
Target: Centromere-binding protein 1, full length, His-tagged (CBF1, Saccharomyces cerevisiae, UniProt P17106, residues 1-351)
Chain of UniProt P17106 (whole entry, looked up): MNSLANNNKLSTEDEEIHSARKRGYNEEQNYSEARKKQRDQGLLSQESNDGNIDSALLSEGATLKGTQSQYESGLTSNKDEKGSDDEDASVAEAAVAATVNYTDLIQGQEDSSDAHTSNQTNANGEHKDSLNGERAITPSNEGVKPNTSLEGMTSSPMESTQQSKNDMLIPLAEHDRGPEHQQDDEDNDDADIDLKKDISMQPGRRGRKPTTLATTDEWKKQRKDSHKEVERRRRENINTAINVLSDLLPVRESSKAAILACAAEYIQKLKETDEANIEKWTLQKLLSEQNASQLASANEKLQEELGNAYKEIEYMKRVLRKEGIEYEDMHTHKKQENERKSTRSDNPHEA
Setting: whole 60-bp probe, lowest competitor level
Sequence	fluorescence intensity [a.u.]
GTATTCAGAGACCATCACGTGATGGAAACGCGATTAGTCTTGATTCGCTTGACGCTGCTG	9180
TAAACGAGTACTTCACACGTAGGCCAAAGCACTCCAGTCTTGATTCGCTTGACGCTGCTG	61.6
TGGTTCACAGCTAACCTTGTGACAGTTGCCTCGCTGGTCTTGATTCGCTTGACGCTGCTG	73.1
AGCGTTCAATGGCGTCATGCGGCGTTGCGAAATTTCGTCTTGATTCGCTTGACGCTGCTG	83.8
TGCGCAACAACTTGGCGTGTGGGTGTATGTCTAGAAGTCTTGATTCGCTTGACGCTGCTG	59.7
AATGCTTTATATAACCATGTGTTTGAATTAGCGATCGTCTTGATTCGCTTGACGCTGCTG	227
GTTTGCAGCTTACTTCACGTGTGGATGGAAAATTGAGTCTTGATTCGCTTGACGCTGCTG	529
CATACCCAACCTTGTATAGTGGGTGAAGATATTTGTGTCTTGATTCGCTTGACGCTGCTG	69.3
CATCGGCTCAACTTGATCATGCAATTAGCAAGCAACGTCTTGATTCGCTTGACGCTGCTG	75.3
TAGTAATGTGCAAGTGATGTGGCGAGATGGTCCTTTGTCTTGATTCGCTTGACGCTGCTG	67.9
CTAACGAAGGTTTGTCACCCGACTTACAAGCCAAGTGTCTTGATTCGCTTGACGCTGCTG	76.7
CAGTTCATTTACTTCCACGTGTAGATGTGAAGGAATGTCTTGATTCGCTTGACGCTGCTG	756
AACTTCGAAATTGGGAGCGTGGGACCAGAAACTTCCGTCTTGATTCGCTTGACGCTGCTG	75.3
AGGATCTAATTCGTCTACGTGGCAAAGGTTTTCAAAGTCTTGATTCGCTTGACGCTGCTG	84.9
GATAGTAAACTCTGTCATGTTAATCGTTTGGATTTGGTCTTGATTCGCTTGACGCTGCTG	77.9
CTTTCCCGATCTTGATCGGTGGGTGTAGCACATTTGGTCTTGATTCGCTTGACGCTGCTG	53.6
AACTGTGAATGGGGATGCGTGACGGGTTCGTCTCTGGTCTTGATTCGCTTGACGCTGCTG	95.8
CGTCCTAGCGATTGAACCGTGGGTGCCATGAGGAAGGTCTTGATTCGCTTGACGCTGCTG	55.3
CGCTTGCCTTTAATCCTCGTGCCGATCCACAAAATCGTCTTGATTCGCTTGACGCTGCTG	122
CCTTGATGGTTCCGTCACGGGAACCAGAGATAATCAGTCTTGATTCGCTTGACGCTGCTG	291
CATTCAGTGCGTAACGACGCGAATAGGGCTTTGAAAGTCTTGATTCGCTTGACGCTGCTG	53.8
TGGGTCCACTTGAAATGCGTGCCGATGAAACGCATTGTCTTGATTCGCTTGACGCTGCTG	74.9
GTCTTGTCTCATTTTCACGTGATATTCCCCACTTCAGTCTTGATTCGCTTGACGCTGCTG	2400
CACATAACCACTTGTCACCTGTGCATTCTTACTTTTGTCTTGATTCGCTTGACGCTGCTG	142
TTTGATCTGATAGGACTCGTGCCAGCACAAGTCCTTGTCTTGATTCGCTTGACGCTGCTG	102

Series 5 — method: universal PBM; form: double-stranded DNA, one strand shown; sample: in vitro; concentration: not given; direction: higher = stronger binding
Target: Sal-like protein 4, full length isoform B (SALL4, Homo sapiens, UniProt Q9UJQ4-2, residues 1-616)
Setting: 8-mer, flanks averaged, mean of replicates
Residues (chain): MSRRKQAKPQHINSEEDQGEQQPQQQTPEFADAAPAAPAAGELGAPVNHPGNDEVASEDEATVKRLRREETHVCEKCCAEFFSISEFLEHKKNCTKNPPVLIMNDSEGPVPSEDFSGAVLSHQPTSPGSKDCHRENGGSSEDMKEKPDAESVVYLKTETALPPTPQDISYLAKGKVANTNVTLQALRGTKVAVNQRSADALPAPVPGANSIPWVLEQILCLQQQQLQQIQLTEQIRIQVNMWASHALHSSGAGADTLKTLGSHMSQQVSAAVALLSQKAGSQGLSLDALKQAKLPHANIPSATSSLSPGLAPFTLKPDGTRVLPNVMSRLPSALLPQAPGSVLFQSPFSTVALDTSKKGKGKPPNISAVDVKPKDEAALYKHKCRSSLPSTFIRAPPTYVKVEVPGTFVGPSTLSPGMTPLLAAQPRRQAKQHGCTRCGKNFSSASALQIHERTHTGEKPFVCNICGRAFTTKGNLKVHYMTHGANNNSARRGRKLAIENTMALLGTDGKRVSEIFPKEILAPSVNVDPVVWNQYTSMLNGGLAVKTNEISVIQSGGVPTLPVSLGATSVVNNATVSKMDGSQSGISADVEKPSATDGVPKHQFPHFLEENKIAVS
Sequence	E-score
GACGTTTA	0.144
AGCCTGAT	0.0114
AGAACTCC	-0.095
GCATGGCA	0.00139
CCGACTCC	-0.316
CTCTCTAC	0.0266
CAACTATC	-0.0736
CTGCCATA	-0.0132
GCGACGCC	-0.288
GGCGACCA	-0.239
GACCGTAC	-0.211
AGGGTAAG	0.00648
AGACTGTA	0.093
CTCTTGAA	0.183
GGACGAAA	-0.136
AGTTAGCA	0.0915
TTATAAAA	0.432
GAGGATAA	0.0926
AGGCCTCA	-0.205
ATCGTGTG	0.0986
AGTTAACT	-0.0678
GCCCGGGC	-0.343
CCACCCAG	-0.284
CAGCCTCA	-0.193
CCGTAGAC	-0.174

Excerpt of the above (series 4):
Sequence	fluorescence intensity [a.u.]
GTTTGCAGCTTACTTCACGTGTGGATGGAAAATTGAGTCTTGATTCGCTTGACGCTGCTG	529
CATACCCAACCTTGTATAGTGGGTGAAGATATTTGTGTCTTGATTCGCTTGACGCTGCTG	69.3
CATCGGCTCAACTTGATCATGCAATTAGCAAGCAACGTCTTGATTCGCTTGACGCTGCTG	75.3
TAGTAATGTGCAAGTGATGTGGCGAGATGGTCCTTTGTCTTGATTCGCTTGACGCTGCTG	67.9
CTAACGAAGGTTTGTCACCCGACTTACAAGCCAAGTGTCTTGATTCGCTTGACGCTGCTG	76.7
CAGTTCATTTACTTCCACGTGTAGATGTGAAGGAATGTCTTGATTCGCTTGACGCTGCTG	756
AACTTCGAAATTGGGAGCGTGGGACCAGAAACTTCCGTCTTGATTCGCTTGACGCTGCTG	75.3
AGGATCTAATTCGTCTACGTGGCAAAGGTTTTCAAAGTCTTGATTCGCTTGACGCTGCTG	84.9
GATAGTAAACTCTGTCATGTTAATCGTTTGGATTTGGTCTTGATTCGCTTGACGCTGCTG	77.9
